Assay results pooled from the literature.
Compare with care: the assays were run in different laboratories. Several values in a cell are separate wells, animals, samples, runs or records. ± gives the spread as reported.

| SMILES | test | test system | setting | scale | endpoint | result |
| --- | --- | --- | --- | --- | --- | --- |
| C=CC(=O)Nc1cc(Nc2ncc(Cl)c(Nc3ccccc3C(=O)C(=O)N(C)C)n2)c(OC)cc1N1CCN(C)CC1 | RECIST v1.1 best response | human EGFR T790M NSCLC | oral, 50 mg/day, per-protocol set |  | patients with complete response | 0% |
| COc1ncc(-c2nc3c(n2C(C)C)[C@H](c2ccc(Cl)cc2)N(c2cc(Cl)cn(C)c2=O)C3=O)c(OC)n1 | antileukemic activity, refers to: treatment failure, resistant disease | human, acute myeloid leukaemia | 120 mg, high-dose, RDE, IWG criteria |  | best overall response | 62.5% |
| C[N+](C)(C)CCOP(=O)(O)OP(=O)([O-])OC[C@H]1O[C@@H](n2ccc(N)nc2=O)[C@H](O)[C@@H]1O | binding, equilibrium dialysis LC-MS |  | 5 µM, thermostabilized A2AR-BRIL construct | baseline: no-protein control, direction not given | z-scored log2 fold change | 0.0493 |
| [Cl][Ru-]([Cl])([Cl])[Cl].[Na+].c1ccc2[nH]ncc2c1.c1ccc2[nH]ncc2c1 | CT, RECIST 1.1 | human | 780 mg/m2 | baseline: baseline | maximum change in target lesions | 6.7% |
| Cc1nc(Nc2ccc(CC(=O)O)cc2)nc(Nc2ccc(F)c(C(F)(F)F)c2)c1C |  | mice, chronic ethanol plus binge | intraperitoneal, 0.3 mg/kg daily, ethanol diet 4 weeks, dosed last two | baseline: vehicle | serum AST | decreased |
| CCCc1nn(C)c2c(=O)[nH]c(-c3cc(S(=O)(=O)N4CCN(C)CC4)ccc3OCC)nc12 |  | human patients on drug, serum or plasma | dose not given, main analysis, matching 1:10 | baseline: off-drug patients, 5.94 mg/dL | mean serum uric acid | 6.84 mg/dL |
| C=CCNc1c(O)cc2c(O)c1C[C@@H](C)C[C@H](OC)[C@H](O)[C@@H](C)/C=C(\C)[C@H](OC(N)=O)[C@@H](OC)/C=C\C=C(/C)C(=O)N2 | RECIST v1.0 | human soft tissue sarcoma | dose not given |  | overall response rate | 6% |
| CC[C@H](C)C[C@H](C)CCCCCCCCC(=O)N[C@H]1C[C@@H](O)[C@@H](NCCN)NC(=O)[C@@H]2[C@@H](O)CCN2C(=O)[C@H]([C@H](O)CCN)NC(=O)[C@H]([C@H](O)[C@@H](O)c2ccc(O)cc2)NC(=O)[C@@H]2C[C@@H](O)CN2C(=O)[C@H]([C@@H](C)O)NC1=O | calcein leakage | DOPC/CHOL liposomes | concentration not given, added: 20 wt% PEG-8000 |  | maximum fusion | 16 ± 2% |
| C[C@]1(CO)Cc2ncn(-c3ccc(C#N)c(Cl)c3)c2C(=O)O1 | aldosterone synthesis, inhibitor, refers to: cortisol | healthy Japanese adults, urine | 80 mg, 0-24 h after first dose, multiple rising dose |  | urinary excretion | 76.7 mmol |
| [131I-].[Na+] |  | hyperthyroidism patients | 185 MBq, long-term follow-up |  | patients requiring third ablation | ~1.7% |
| CCCCC1(CCCC)CN(c2ccccc2)c2cc(SC)c(OCC(=O)N[C@@H](C(=O)NCC(=O)O)c3ccccc3)cc2S(=O)(=O)C1 | refers to: LDL cholesterol | human, serum | 2.5 mg once daily, day 1 |  | serum LDL-C | 106 mg/dL |
| Nc1ncnc2c1ncn2[C@@H]1O[C@H](COP(=O)(O)OS(=O)(=O)O)[C@@H](O)[C@H]1O | binding, equilibrium dialysis LC-MS |  | 5 µM, thermostabilized A2AR-BRIL construct | baseline: no-protein control, direction not given | z-scored log2 fold change | 0.214 |
| CCCCCCCCCC(=O)N[C@@H](Cc1c[nH]c2ccccc12)C(=O)N[C@H](CC(N)=O)C(=O)N[C@@H](CC(=O)O)C(=O)N[C@@H]1C(=O)NCC(=O)N[C@@H](CCCN)C(=O)N[C@@H](CC(=O)O)C(=O)N[C@H](C)C(=O)N[C@@H](CC(=O)O)C(=O)NCC(=O)N[C@H](CO)C(=O)N[C@@H]([C@H](C)CC(=O)O)C(=O)N[C@@H](CC(=O)c2ccccc2N)C(=O)O[C@@H]1C | calcein leakage | DOPC/CHOL liposomes | concentration not given, added: 20 wt% PEG-8000 |  | maximum fusion | 63 ± 5% |
| CC[C@H](C)[C@@H]1NC(=O)[C@@H]2CCCN2C(=O)[C@H](CC(C)C)NC(=O)[C@H](CC(C)C)NC(=O)CNC(=O)[C@@H](NC(=O)[C@@H](NC(=O)[C@H](CC(=O)O)NC(=O)CNC(=O)[C@@H](NC(=O)[C@H](C)NC(=O)CNC(=O)[C@H](CCCCN)NC(=O)[C@H](CC(C)C)NC(=O)[C@H](CC(C)C)NC(=O)[C@H](CCCCN)NC(=O)CNC(=O)[C@@H](NC(=O)[C@@H](N)CC(C)C)C(C)C)C(C)C)C(C)C)CSSC[C@@H](C(=O)O)NC1=O | RNA-seq, refers to: Plk3 | mouse, traumatic brain injury model, frontal cortex and hippocampus | dose not given | baseline: TBI alone | log2 fold change | -2.27 |
| CN1CCN(S(=O)(=O)c2cc([N+](=O)[O-])ccc2N(CCOS(C)(=O)=O)CCOS(C)(=O)=O)CC1 |  | NSG mice, sample CC PDX | intraperitoneal, 25 mg/kg weekly x3 | baseline: vehicle | EFS delay (T-C) | -0.1 days |
| CC(=O)c1c(C)c2cnc(Nc3ccc(C4CCN(CCS(C)(=O)=O)CC4)cn3)nc2n(C2CCCC2)c1=O |  | mouse Colo-205 xenograft | oral, 80 mg/kg twice daily, 14 days |  | T/C | -36% |
| C[C@H]1O[C@@H](O[C@H]2CC[C@@]3(C)[C@@H](CC[C@]4(C)[C@@H]3C=C[C@]35OC[C@@]6(CCC(C)(C)C[C@H]63)[C@@H](O)C[C@]54C)[C@]2(C)CO)[C@H](O)[C@@H](O[C@@H]2O[C@H](CO)[C@@H](O)[C@H](O)[C@H]2O)[C@H]1O | Western blot, refers to: SIRT1 | mouse, AAV8-TBG-Null control vector, liver | dose not given, high dose, unit not given, added: ethanol | baseline: β-actin | protein level | 0.871 and 0.805 and 0.991 |
